Earlier results, collected from citations in different studies.
Protocols differ between the studies behind these lines. Numbers after ± are the reported error.
B1: CCL1; sequence looked up; chain KSMQVPFSRCCFSFAEQEIPLRAILCYRNTSSICSNEGLIFKLKRGKEACALDTVGWVQRHRKMLRHCPSKRK

Substance | target or system | assay | system | setting | quantity | value
ILRKPWRIWRR | Staphylococcus aureus | – | peptide, ATCC 33591 | – | MIC | 512 µg/mL
LLGSLSLDAFR | – | isocratic RP-HPLC, C18 column | peptide, water/acetonitrile, 0.1% TFA | 25 °C | retention coefficient S | 17.4
ivermectin | – | – | – | – | logD | 6.61
ALILTLVS | – | isocratic RP-HPLC, C18 column | peptide, water/acetonitrile, 0.1% TFA | 25 °C | retention coefficient S | 13.5
pegcetacoplan | – | – | cynomolgus monkey | 7 mg/kg, NOAEL dose, arithmetic mean | Cmax | 931 µg/mL
pyridoxine | – | – | – | basic | pKa | 8.97
Teicoplanin | – | – | healthy volunteers | – | plasma protein binding | ~90%
teicoplanin | – | – | – | – | pKa | 2.9
octreotide | – | – | human | oral, 20 mg, permeation-enhancing capsules | oral bioavailability | ~0.7%
B1 (CCL1) | CCR8 S110A mutant | IP accumulation, agonist | – | – | EC50 | 1.6 nM
LAGSASADAFR | – | isocratic RP-HPLC, C18 column | peptide, water/acetonitrile, 0.1% TFA | 25 °C | retention coefficient S | 19.5
colistin | – | – | aqueous solution | 37 °C | stability time | 120 h
TGQIFK | – | isocratic RP-HPLC, C18 column | peptide, water/acetonitrile, 0.1% TFA | 25 °C | retention coefficient S | 14.2
IFFRRNKKMAVKVAINGFGRIGRLAFRQMFGRYIAKINPDNKKFKTMPSG | Escherichia coli | – | peptide, DH5α | – | MIC | 11 µM
[18F]AlF-NOTA-octreotide | – | – | rat, naive, bone | 2 h post-injection, 46 | SUVmean | 0.45 ± 0.03
Ac-LRKLRKRLLRDWLKAFYDKVAEKLKEAF-NH2 (N-acetyl, C-amide) | – | – | peptide, egg PC-water interface | lipid affinity | surface pressure | 45 dyn/cm
teicoplanin | – | – | human | oral | oral bioavailability | < 1%

Some of these lines once more:
Substance | target or system | assay | system | setting | quantity | value
LAGSASADAFR | – | isocratic RP-HPLC, C18 column | peptide, water/acetonitrile, 0.1% TFA | 25 °C | retention coefficient S | 19.5
TGQIFK | – | isocratic RP-HPLC, C18 column | peptide, water/acetonitrile, 0.1% TFA | 25 °C | retention coefficient S | 14.2
